{"data": "Results collected from several papers", "cell line": "HepG2", "note": "Compare with care: the assays were run in different laboratories."}
{"SMILES": "C=C(CO)[C@@H]1CC[C@]2(C)CC[C@]3(C)[C@H](CC[C@@H]4[C@@]5(C)CCC(=O)C(C)(C)C5CC[C@]43C)C12 (stereo partly drawn)", "effect on": "cell growth or viability", "technique": "SRB", "IC50": "10.7 µM"}
{"SMILES": "CC(=O)O[C@H]1CC[C@]2(C)[C@H]3CC=C4[C@@H]5[C@@H](C)[C@H](C)CC[C@]5(C(=O)O)CC[C@@]4(C)[C@]3(C)CC[C@H]2C1(C)C", "effect on": "cell growth or viability", "technique": "MTT", "time": "24 h", "IC50": "71.3 µM"}
{"SMILES": "CC(=O)OC[C@H]1O[C@@H](Sc2nc3c4cnn(C(=O)CNc5ccc(C)cc5)c4ncn3n2)[C@H](OC(C)=O)[C@@H](OC(C)=O)[C@H]1OC(C)=O", "effect on": "cell growth or viability", "technique": "MTT", "time": "48 h", "IC50": "0.048 µM"}
{"SMILES": "C=CC(OC(C)=O)c1ccc(OC(C)=O)c(OC)c1 (stereo not drawn)", "effect on": "cell growth or viability", "technique": "MTT", "time": "24 h", "IC50": "4.3 µM"}
{"SMILES": "CC(=O)[O-].O.O.O.O.[Mn+2].[O-]c1ccc(Br)cc1C=NCCN1CCOCC1", "effect on": "cell viability", "technique": "MTT", "time": "72 h", "IC50": "25.3 µg/mL"}
{"SMILES": "C=C1CC(OC(=O)C(C)(O)CCl)C2C(=C)C(=O)OC2C2C1CC(O)C2(O)CCl (stereo not drawn)", "effect on": "cell growth or viability", "IC50": "0.6 µg/mL"}
{"SMILES": "Cc1nn(C)c(O)c1-c1nc2cc(Cl)c(Cl)cc2[nH]c1=O", "effect on": "cell growth or viability", "technique": "MTT", "time": "72 h", "IC50": "> 50 µM"}
{"SMILES": "COC(C)(C)/C=C/C[C@@](C)(O)[C@H]1CC[C@]2(C)[C@@H]1CC[C@@H]1[C@@]3(C)CCC(=O)C(C)(C)[C@@H]3CC[C@]12C", "effect on": "cell growth or viability", "technique": "SRB", "IC50": "19.1 µM"}
{"SMILES": "Cc1cc(/C=C/C#N)cc(C)c1Oc1cc(Nc2ccc(C#N)cn2)nc2ccncc12", "time": "48 h", "IC50": "> 120 µM"}
{"SMILES": "CC(C)Cn1cc(-c2ccnc(Nc3ccc(N4CCN(CCCCCCC(=O)NO)CC4)cc3)n2)nn1", "effect on": "cell growth or viability", "technique": "SRB", "time": "72 h", "IC50": "7.92 µM"}
{"SMILES": "CN(C(=NN=C(c1ccccc1)c1ccccn1)[S][Ga]([Cl])[Cl])C1CCCCC1", "effect on": "cell growth or viability", "technique": "MTT", "time": "48 h", "IC50": "0.14 µM"}
{"SMILES": "C=C1C(=O)[C@@]23CC[C@@H]4C(C)(C)CCC[C@@]4(CO)[C@@H]2[C@@H](O)C[C@@H]1C3", "effect on": "cell growth or viability", "technique": "MTT", "IC50": "4.2 µM"}
{"note": "A few entries again:"}
{"SMILES": "C=C1C(=O)[C@@]23CC[C@@H]4C(C)(C)CCC[C@@]4(CO)[C@@H]2[C@@H](O)C[C@@H]1C3", "effect on": "cell growth or viability", "technique": "MTT", "IC50": "4.2 µM"}
